Measurements pooled from the literature.
Changes are numbered by the printed parent chain. Numbers after ± are the reported error.
B1: enzyme (Astragalus mongholicus, UniProt A0A977WMR2); chain MDGKGEDKPLKLYFIPYLAPGHMIPLCAMATLFASKGHHVTIITTPFNAKTLQKSIPSSQSKQHLHLHTVPFPSQEVSLPDGIENLSATTNLDNLVKVYQATTLLRPPIENFVLQNPPDCIVADFLFPWVDELANNLKIPRFAFNGFSLFAICAIESVKKHSLYSSTSFSIPDLPHTITMNASPPKQMSEMLQPLLDTELKSNGLIVNNFVELDGEEYIEHYEKTTGHKAWHLGPASLIRRSIEEKVESGQESAVSVHECLSWLNSKRVNSVVYICFGSLCHFPDKQLYEIACGIEASGHEFIWVVPEKKGKEDESEEEKEKWLPKGFQFQNQEKGLIIRGWAPQVLILSHPAVGAFLTHCGWNSTVEAVSFGIPMITWPVHGEQFYNEKLITQVRGIGVEVGAAEWTAVGFGEREKIVSRDSIQKAVERLMDGGDEAENIRRLAREFGDKAKLAVQEGGSSHKNLTTLIDDLKRLRDCKLS
B2: CYP2J2 (Homo sapiens, UniProt P51589); chain MLAAMGSLAAALWAVVHPRTLLLGTVAFLLAADFLKRRRPKNYPPGPWRLPFLGNFFLVDFEQSHLEVQLFVKKYGNLFSLELGDISAVLITGLPLIKEALIHMDQNFGNRPVTPMREHIFKKNGLIMSSGQAWKEQRRFTLTALRNFGLGKKSLEERIQEEAQHLTEAIKEENGQPFDPHFKINNAVSNIICSITFGERFEYQDSWFQQLLKLLDEVTYLEASKTCQLYNVFPWIMKFLPGPHQTLFSNWKKLKLFVSHMIDKHRKDWNPAETRDFIDAYLKEMSKHTGNPTSSFHEENLICSTLDLFFAGTETTSTTLRWALLYMALYPEIQEKVQAEIDRVIGQGQQPSTAARESMPYTNAVIHEVQRMGNIIPLNVPREVTVDTTLAGYHLPKGTMILTNLTALHRDPTEWATPDTFNPDHFLENGQFKKREAFMPFSIGKRACLGEQLARTELFIFFTSLMQKFTFRPPNNEKLSLKFRMGITISPVSHRLCAVPQV
P1: MED17 (Saccharomyces cerevisiae); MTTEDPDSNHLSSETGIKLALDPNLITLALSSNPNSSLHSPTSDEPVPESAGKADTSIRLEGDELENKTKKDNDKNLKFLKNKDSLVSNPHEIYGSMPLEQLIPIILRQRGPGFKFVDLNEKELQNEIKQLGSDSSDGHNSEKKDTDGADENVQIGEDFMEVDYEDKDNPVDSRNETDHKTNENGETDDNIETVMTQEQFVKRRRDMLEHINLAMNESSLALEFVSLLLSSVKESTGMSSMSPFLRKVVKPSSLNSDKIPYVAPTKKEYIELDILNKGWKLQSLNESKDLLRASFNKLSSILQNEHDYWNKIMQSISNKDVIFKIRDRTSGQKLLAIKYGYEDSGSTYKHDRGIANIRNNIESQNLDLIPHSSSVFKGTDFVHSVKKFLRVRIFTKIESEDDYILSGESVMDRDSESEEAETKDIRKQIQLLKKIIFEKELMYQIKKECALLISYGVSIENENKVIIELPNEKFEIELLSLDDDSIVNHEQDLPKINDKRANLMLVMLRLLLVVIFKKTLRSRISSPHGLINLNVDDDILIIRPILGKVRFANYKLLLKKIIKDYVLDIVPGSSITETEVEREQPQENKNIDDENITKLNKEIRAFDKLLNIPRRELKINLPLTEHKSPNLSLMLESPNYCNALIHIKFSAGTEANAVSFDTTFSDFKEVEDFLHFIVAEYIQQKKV; partner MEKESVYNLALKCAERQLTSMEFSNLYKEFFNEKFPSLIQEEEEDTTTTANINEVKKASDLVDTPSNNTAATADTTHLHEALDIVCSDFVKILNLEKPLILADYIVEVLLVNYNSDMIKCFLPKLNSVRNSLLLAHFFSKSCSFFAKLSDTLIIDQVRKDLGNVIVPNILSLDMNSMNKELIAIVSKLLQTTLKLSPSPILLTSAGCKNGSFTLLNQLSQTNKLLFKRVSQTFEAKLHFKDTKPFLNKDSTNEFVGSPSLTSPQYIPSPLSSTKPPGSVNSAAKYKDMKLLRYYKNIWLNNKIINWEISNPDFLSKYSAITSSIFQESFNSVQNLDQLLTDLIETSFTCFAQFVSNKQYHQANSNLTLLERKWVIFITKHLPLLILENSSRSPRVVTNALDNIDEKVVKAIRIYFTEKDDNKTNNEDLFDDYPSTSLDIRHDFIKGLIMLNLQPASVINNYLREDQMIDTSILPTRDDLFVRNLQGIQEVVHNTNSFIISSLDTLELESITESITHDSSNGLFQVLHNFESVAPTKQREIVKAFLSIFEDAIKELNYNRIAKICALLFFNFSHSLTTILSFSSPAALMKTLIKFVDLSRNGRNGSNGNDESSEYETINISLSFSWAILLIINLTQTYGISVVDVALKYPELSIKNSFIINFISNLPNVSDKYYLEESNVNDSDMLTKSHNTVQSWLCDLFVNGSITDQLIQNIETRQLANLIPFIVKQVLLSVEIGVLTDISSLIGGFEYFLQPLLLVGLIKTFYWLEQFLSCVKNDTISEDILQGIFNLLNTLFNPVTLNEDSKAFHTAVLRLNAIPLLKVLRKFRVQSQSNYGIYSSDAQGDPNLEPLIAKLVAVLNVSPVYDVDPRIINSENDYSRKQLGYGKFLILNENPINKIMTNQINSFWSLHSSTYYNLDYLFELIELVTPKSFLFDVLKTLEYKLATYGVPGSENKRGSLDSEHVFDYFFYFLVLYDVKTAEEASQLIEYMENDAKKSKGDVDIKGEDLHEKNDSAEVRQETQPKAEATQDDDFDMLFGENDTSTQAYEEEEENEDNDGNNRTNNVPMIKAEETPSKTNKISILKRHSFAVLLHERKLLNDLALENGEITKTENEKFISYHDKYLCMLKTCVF
B3: enzyme (Streptomyces venezuelae, UniProt Q9ZGI2); chain SGADTGAGAGMFRALFRQAVEDDRYGEFLDVLAEASAFRPQFASPEACSERLDPVLLAGGPTDRAEGRAVLVGCTGTAANGGPHEFLRLSTSFQEERDFLAVPLPGYGTGTGTGTALLPADLDTALDAQARAILRAAGDAPVVLLGHSGGALLAHELAFRLERAHGAPPAGIVLVDPYPPGHQEPIEVWSRQLGEGLFAGELEPMSDARLLAMGRYARFLAGPRPGRSSAPVLLVRASEPLGDWQEERGDWRAHWDLPHTVADVPGDHFTMMRDHAPAVAEAVLSWLDAIEGIEGAGK
B4: genB3 A452T/L401C/Q310N (Micromonospora echinospora, UniProt Q2MG50); chain MDSANLTNRGLVERARRVTAAENYDIGTRFSAMIQSGEGAWLTDVEGNRYVDLTASSGTIILGHRNQAVTEAITRQIRDFGTAFASTLSVPRVELAERLCERYECAEKVVFHKTGSEGTAMAARLARAATGRELILSCGYHGWHEWQLAGETFGYQQTTGVVGFGYNEKALAKMLEAFGNEVAGVLISPELLYFDVEFYQRMYALCARYDVPFMMDEVYTGFRAGPKGVHGLGVPADVVVVSKGLANGHSLAAVMGRRDIIDAYDVSGINGTYTREVPPMAAAMAVLDVLDTPGVYEHAEAMGRRLADGMREILTGEGIPNWVGGPALMFDTVLPNDDLGWEIYKTAHDFGVYFEDSGTQCVTTAFDEAAVDHALTAFRKATRQVIADRPDIAPTSGGELTEERKLDFAEETFGGLLRDDERTNALIDETIEKVVNRDRSIKPVLIPAQN
B5: protein (Thermotoga neapolitana, UniProt B9K712); chain MKMLYDLAKKRKTVRRFKKEKPPLEDLIYSLKVANEAPSGMNAQPWRFLIVEDEKLKGQIRRVCERSEKTFYENVRGRLKEWLDEKRFTWRKPFLKEAPYLLLVFSEKSAPYSRESVWLAVGYLLLALEEKGLGSVPYTPPDFREVEKLVNTPSELRLEVILPVGYPDDPKPKYPRNEVIVRYNTF
B6: enzyme (UniProt A0A2P1BT29); chain MNERFTLPAHSPALAALVPEFLDLARAASGDPAAEERDLAVWENLTEHVSLDYRFANPPVHGPGDWDTYDSRFVDPAGVEIGTLQGTGRILYERSSDAHLMMYYREQLTFPDGTAQTAGWVDGTAILGGAWQRFPILGSGGRYGSMIGLRSFQPTPEAPHSLYRTHLVLREIPGGHGLTDPEEIDAALSLLGAFVGPSVNPATGNGRLEPPVRAGRTA
UniProt Q94JM3, sequence (whole entry, looked up): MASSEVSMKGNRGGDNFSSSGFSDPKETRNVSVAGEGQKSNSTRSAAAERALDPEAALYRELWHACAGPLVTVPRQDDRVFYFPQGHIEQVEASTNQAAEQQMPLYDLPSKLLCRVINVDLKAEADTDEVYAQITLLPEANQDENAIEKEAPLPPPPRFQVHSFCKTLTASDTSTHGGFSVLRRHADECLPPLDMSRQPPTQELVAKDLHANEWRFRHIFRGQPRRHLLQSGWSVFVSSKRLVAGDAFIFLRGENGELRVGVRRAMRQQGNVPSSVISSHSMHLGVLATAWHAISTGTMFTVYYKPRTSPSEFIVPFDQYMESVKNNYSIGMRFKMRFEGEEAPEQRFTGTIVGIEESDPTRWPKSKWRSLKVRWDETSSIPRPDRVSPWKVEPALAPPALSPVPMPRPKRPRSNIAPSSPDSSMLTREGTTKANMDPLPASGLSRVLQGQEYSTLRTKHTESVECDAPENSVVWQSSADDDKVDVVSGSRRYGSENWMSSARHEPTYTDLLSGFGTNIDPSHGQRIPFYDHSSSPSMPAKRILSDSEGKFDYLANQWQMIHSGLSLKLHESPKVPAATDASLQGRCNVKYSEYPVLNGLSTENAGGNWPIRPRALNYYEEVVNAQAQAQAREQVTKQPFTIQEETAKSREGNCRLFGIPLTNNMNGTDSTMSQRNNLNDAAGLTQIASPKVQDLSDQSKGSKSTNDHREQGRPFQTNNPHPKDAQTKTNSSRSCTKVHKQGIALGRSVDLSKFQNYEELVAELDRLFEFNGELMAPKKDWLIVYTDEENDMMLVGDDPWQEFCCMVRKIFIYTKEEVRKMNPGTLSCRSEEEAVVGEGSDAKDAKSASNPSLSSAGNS
UniProt B2RXH2, sequence (whole entry, looked up): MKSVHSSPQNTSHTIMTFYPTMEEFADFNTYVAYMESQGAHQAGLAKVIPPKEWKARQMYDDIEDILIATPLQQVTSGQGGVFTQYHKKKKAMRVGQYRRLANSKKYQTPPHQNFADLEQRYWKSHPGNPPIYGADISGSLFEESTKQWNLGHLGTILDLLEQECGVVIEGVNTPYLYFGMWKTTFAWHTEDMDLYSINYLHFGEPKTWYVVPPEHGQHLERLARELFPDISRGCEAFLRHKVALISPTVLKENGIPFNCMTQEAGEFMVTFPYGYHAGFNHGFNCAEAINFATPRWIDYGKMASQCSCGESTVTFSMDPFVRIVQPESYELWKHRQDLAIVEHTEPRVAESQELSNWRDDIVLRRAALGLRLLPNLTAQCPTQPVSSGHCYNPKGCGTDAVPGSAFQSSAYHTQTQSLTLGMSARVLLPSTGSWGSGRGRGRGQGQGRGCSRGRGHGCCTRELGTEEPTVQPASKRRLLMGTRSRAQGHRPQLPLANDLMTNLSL
UniProt Q6PIY7, sequence (whole entry, looked up): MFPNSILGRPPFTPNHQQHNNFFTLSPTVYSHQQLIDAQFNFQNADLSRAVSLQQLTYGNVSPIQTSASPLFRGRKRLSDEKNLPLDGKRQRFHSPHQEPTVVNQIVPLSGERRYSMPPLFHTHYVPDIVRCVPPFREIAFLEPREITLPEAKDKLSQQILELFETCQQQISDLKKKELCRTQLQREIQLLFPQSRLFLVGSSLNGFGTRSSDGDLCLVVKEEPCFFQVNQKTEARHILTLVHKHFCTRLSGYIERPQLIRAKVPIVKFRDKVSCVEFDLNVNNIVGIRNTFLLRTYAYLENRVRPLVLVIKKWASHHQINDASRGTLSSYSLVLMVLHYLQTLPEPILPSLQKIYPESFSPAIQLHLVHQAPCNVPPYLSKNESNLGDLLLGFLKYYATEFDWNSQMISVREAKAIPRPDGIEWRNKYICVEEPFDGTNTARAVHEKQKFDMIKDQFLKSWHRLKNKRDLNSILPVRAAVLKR

B1 (enzyme)
kcat (CC(C)(O)[C@H]1CC[C@@](C)([C@H]2[C@@H](O)C[C@@]3(C)[C@@H]4C[C@H](O)[C@H]5C(C)(C)[C@@H](O)CC[C@@]56C[C@@]46CC[C@]23C)O1; steady-state kinetics): 0.024 s⁻¹

B2 (CYP2J2)
kcat (COc1ccc2c(c1)OC1=C(/C=C/c3sc4ccccc4[n+]3C)CCCC1=C2; steady-state kinetics; pH 7.4, 37 °C): 0.382 s⁻¹

P1 V670E
peptide counts (MED5 (Saccharomyces cerevisiae); co-IP mass spectrometry; crude extract; higher = more binding): 13

KDM4E (Homo sapiens, UniProt B2RXH2)
kcat (C[C@H](N)C(=O)N[C@@H](CCCNC(=N)N)C(=O)N[C@@H](CCCC[N+](C)(C)C)C(=O)N[C@@H](CO)C(=O)N[C@H](C(=O)NCC(=O)NCC(=O)N[C@@H](CCCCN)C(=O)O)[C@@H](C)O; steady-state kinetics; pH 7.5, 37 °C): 0.076 ± 0.001 s⁻¹

GACAUGGUCCGGUAGUUCAGUUGGUUAGAAUGCCUGCCUGUCACGCAGGAGGUCGCGGGUUCGAGUCCCGUCCGGACCG (tRNA (Bacillus subtilis); 5'-GMPS, tRNA fold)
binding free energy loss (PRORP1 77-572 Y133F (Arabidopsis thaliana, UniProt Q66GI4); fluorescence anisotropy; folded RNA; NaCl 1 M; reference: wild-type target): 1.8 kcal/mol

AGTCTTTTTGGTCTCTGGTCGGTCGACAATCCGTGTG (dsDNA; 5-C6-amino-dT labels)
K1/2 (ARF2 1-395 (Arabidopsis thaliana, UniProt Q94JM3); smFRET titration; double-stranded DNA, one strand shown): 362 nM

CCTCTTCCCTCACCTCTTCTTGACCTCATTCGTACCCATTGACCTTCGCAACCACCTGCGAAGGTCAATGGGTACGAATGAGGT (hairpin DNA; hairpin, 5' overhang, dG-C8-FABP 22, 3' ddT)
Kd (polA fragment D424A (Escherichia coli); SPR; binary): 0.27 ± 0.02 nM

B3 (enzyme)
kcat (CC[C@@H](O)[C@H](C)/C=C/C(=O)[C@H](C)C[C@H](C)[C@H](O)[C@@H](C)C(=O)SCCNC(C)=O; steady-state kinetics): 1.7 ± 0.137 s⁻¹

B4 (genB3 A452T/L401C/Q310N)
kcat (CN[C@@H]1[C@@H](O)[C@@H](O[C@@H]2[C@@H](O)[C@H](O[C@H]3O[C@H](CN)[C@@H](O)[C@H](OP(=O)(O)O)[C@H]3N)[C@@H](N)C[C@H]2N)OC[C@]1(C)O; steady-state kinetics; 30 °C): 0.02 ± 0.00283 s⁻¹

B5 (protein)
kcat (N[C@@H](Cc1ccc(O)c(I)c1)C(=O)O; steady-state kinetics; pH 7.4, 60 °C): 0.45 ± 0.183 s⁻¹

enzyme (Actinoalloteichus caeruleus, UniProt M1F4W9)
kcat (CC(C)C[C@H](NC(=O)c1cc(O)cc(-c2ccccn2)n1)C(=O)O; steady-state kinetics; pH 8, 30 °C): 12.7 ± 0.779 s⁻¹

TENT2 (Homo sapiens, UniProt Q6PIY7)
kcat (Nc1ncnc2c1ncn2[C@@H]1O[C@H](COP(=O)(O)OP(=O)(O)OP(=O)(O)O)[C@@H](O)[C@H]1O; steady-state kinetics; pH 8, 37 °C, together with: Mg2+): 2.93e-05 ± 1.6e-06 s⁻¹

B6 (enzyme)
kcat (C=C1OC(=O)C(C(=O)CC[C@H](C)C(=O)/C=C/C=C/C(C)=C/C)=C1O; steady-state kinetics; pH 8, 30 °C): 0.627 ± 0.0237 s⁻¹

A few entries again:
B3 (enzyme)
kcat (CC[C@@H](O)[C@H](C)/C=C/C(=O)[C@H](C)C[C@H](C)[C@H](O)[C@@H](C)C(=O)SCCNC(C)=O; steady-state kinetics): 1.7 ± 0.137 s⁻¹

CCTCTTCCCTCACCTCTTCTTGACCTCATTCGTACCCATTGACCTTCGCAACCACCTGCGAAGGTCAATGGGTACGAATGAGGT (hairpin DNA; hairpin, 5' overhang, dG-C8-FABP 22, 3' ddT)
Kd (polA fragment D424A (Escherichia coli); SPR; binary): 0.27 ± 0.02 nM
